Measured values of several laboratories.
Lines come from different studies, so protocols differ. Several values in a cell are separate wells, animals, samples, runs or records. ± gives the spread as reported.
UniProt P54762, sequence (whole entry, looked up): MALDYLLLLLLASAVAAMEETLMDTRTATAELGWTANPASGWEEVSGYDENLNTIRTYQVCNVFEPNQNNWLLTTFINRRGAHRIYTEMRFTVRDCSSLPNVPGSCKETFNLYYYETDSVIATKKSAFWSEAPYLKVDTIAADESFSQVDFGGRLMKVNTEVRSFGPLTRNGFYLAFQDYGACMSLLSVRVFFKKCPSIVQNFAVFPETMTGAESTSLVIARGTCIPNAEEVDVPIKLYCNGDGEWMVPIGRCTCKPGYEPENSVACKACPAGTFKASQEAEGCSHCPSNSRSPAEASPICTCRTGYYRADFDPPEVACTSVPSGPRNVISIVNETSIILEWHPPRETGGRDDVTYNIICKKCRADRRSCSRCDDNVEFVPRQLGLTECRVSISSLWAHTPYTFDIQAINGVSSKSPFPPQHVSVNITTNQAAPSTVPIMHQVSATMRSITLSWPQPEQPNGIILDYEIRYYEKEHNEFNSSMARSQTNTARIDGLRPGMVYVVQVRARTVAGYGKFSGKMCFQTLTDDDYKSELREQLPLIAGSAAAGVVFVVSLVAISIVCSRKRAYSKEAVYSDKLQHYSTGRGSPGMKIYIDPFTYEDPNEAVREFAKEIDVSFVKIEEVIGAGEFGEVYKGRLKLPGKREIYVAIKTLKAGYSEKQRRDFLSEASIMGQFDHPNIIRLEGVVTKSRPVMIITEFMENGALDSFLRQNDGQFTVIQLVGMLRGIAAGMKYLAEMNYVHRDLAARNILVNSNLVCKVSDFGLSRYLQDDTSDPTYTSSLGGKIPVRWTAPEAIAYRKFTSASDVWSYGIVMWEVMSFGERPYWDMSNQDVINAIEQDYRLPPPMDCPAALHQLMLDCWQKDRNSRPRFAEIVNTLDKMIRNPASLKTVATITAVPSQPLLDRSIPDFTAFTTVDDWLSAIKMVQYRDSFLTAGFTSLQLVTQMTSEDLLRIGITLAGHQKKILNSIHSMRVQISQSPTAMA

Compound	tested on	assay	test system	setting	how to read	measurement	value
CN1CCC[C@]1(C)/C=C/S(=O)(=O)NC(=O)Nc1c2c(cc3c1CCC3O)CCC2 (stereo partly drawn)			human, plasma	oral, 50 mg twice daily of parent drug, day 14, metabolite of dosed drug		AUC(0-tau)	350 µg·h/mL
Cc1cc(Cl)cc([S+](C)[O-])c1NC(=O)c1cc(Br)nn1-c1ncccc1Cl (stereo not drawn)		potentiometric				pKa	8.9
CN1C(=O)[C@@H](Cc2ccc(O)c(I)c2)NC(=O)CNC(=O)[C@H](Cc2ccc3ccccc3c2)NC(=O)[C@H](CCCNC(=N)N)NC(=O)[C@H]1CCCNC(=O)c1ccc(CNC(=O)CN2CCN(CC(=O)O)CCN(CC(=O)O)CCN(CC(=O)O)CC2)cc1 [lutetium-177 labelled]		1	human, extrapolated from mouse, osteogenic cells			total absorbed dose	0.049 mGy/MBq
CCCC[C@H](OC(C)=O)c1ccccc1C(=O)O			beagle dogs, both sexes, whole blood	intravenous, 0.5 mg/kg single dose		AUC(0-t)	0.361 ± 0.167 µg·h/mL
CC(C)C[C@H](NC(=O)[C@H](CCCNC(=N)N)NC(=O)[C@H](Cc1ccccc1)NC(=O)[C@H](Cc1ccccc1)NC(=O)[C@@H](NC(=O)[C@H](CO)NC(=O)[C@H](CO)NC(=O)[C@H](CC(=O)O)NC(=O)[C@H](CO)NC(=O)[C@H](CO)NC(=O)[C@H](CC(=O)O)NC(=O)[C@H](CO)NC(=O)[C@H](CO)NC(=O)[C@H](CC(=O)O)NC(=O)[C@H](CO)NC(=O)[C@H](CO)NC(=O)[C@H](CC(=O)O)NC(=O)[C@H](CO)NC(=O)[C@H](CO)NC(=O)[C@H](CC(=O)O)NC(=O)[C@H](CO)NC(=O)[C@H](CO)NC(=O)[C@H](CC(=O)O)NC(=O)[C@H](CO)NC(=O)[C@H](CO)NC(=O)[C@H](CC(=O)O)NC(=O)[C@H](CO)NC(=O)[C@H](CO)NC(=O)[C@@H](N)CC(=O)O)[C@@H](C)O)C(=O)N[C@@H](Cc1ccccc1)C(=O)N[C@@H](CC(N)=O)C(=O)N[C@@H](CCCNC(=N)N)C(=O)N[C@@H](C)C(=O)N[C@@H](CCCCN)C(=O)N[C@@H](CCCNC(=N)N)C(=O)N[C@@H](Cc1c[nH]cn1)C(=O)N[C@@H](Cc1c[nH]cn1)C(=O)NCC(=O)N[C@@H](Cc1ccc(O)cc1)C(=O)N[C@@H](CCCCN)C(=O)N[C@@H](CCCNC(=N)N)C(=O)N[C@@H](CCCCN)C(=O)N[C@@H](Cc1ccccc1)C(=O)N[C@@H](Cc1c[nH]cn1)C(=O)O		HPLC-UV	human saliva	6 h, 37 °C, together with: initial 1 mg/mL		peptide concentration	0.894 mg/mL
Cc1cc(-c2ccc(C(=O)[C@@H]3CCCC[C@H]3C(=O)Nc3cnn4c3C(=O)NCC4)cc2)[nH]n1			human, urine	oral, 200 mg, 0-144 h	relative to: dose	cumulative radioactivity recovery	6.67% and 5.62% and 4.93% and 6.32% and 4.97% and 6.79%
Cc1nc(N)nc2c1C(=O)N[C@@H](c1ccc(F)cc1-c1cccc(O[11CH3])n1)C2		ex vivo biodistribution	mice, MDA-MB-231 subcutaneous xenograft, pancreas	60 min post-injection, baseline, vehicle pre-treatment		tracer uptake	2.4 ± 0.1 %ID
CN1CCC[C@]1(C)/C=C/S(=O)(=O)NC(=O)Nc1c2c(cc3c1C(O)CC3)CCC2 (stereo partly drawn)			human, plasma	oral, 100 mg twice daily of parent drug, day 14, metabolite of dosed drug		AUC(0-tau)	212 µg·h/mL
CC1(C)C(=CC=C2CCCC(C=CC3=[N+](CCC[N+](C)(C)C)c4ccc(S(=O)(=O)O)cc4C3(C)C)=C2SCCOCCOCCC(=O)O)N(CCC[N+](C)(C)C)c2ccc(S(=O)(=O)O)cc21			PBS	pH 7.4		absorption maximum wavelength	779 nm
CCCCN1C(=O)c2cccc3c(NCCCCCN4CCOCC4)ccc(c23)C1=O			water	pH 6.0		fluorescence quantum yield	0.27
O=C1C2CC3CC1CC(C(=O)N1CCN(c4ccc([N+](=O)[O-])c5ncccc45)CC1)(C3)C2	Salmonella typhimurium	Ames test	TA98	0.13 µg/well, with S9	relative to: vehicle	revertant fold increase	1.1
CNC(=O)C1CCCN(C(=O)C2CC3CCC2N3C(=O)[C@@H]2C[C@@H](O)CN2C(=O)NCc2cccc(Cl)c2F)C1 (mixture of isomers)			dog liver microsomes			intrinsic clearance	6 µL/min/mg
COc1cc(N2CCN(C(=O)C3CCCN3)CC2)ccc1Nc1ncc(Cl)c(Nc2ccccc2P(C)(C)=O)n1 (stereo not drawn)			nude mice, NCI-H3122 xenograft	intraperitoneal, 10 mg/kg every other day, day 13		body weight	27.7 g and 24.5 g and 25.3 g and 26.1 g and 21.9 g
Cc1c(Cc2cccc(OC(C)(C)C(=O)O)c2)c2ccc(C(=O)N[C@@H](C)c3cccc(C(C)(C)C)c3)cc2n1C(C)C		metabolic stability	mouse, liver microsomes			half-life	0.933 h
CC(=O)[O-].O.[Cu+2].[O-]c1ccc(Br)cc1C=NCCN1CCOCC1		DPPH radical scavenging		160 µM		inhibition	52.4%
O=C(Nc1cnccc1-c1ccc([18F])cc1)c1ccnc(NC(=O)C2CC2)c1			FVB/NJ mouse, both sexes, brain	intravenous, 50 min, together with: tariquidar 15 mg/kg iv		SUV	0.37
[2H]C1([2H])CC[C@@H](C[C@@H](C#N)NC(=O)[C@@H]2[C@@H]3[C@H](CN2C(=O)[C@@H](NC(=O)C(F)F)C(C)(C)C)C3(C)C)C(=O)N1			mouse liver microsomes	scaled to liver		intrinsic clearance	253 mL/min/kg
O=C(Nc1cnccc1-c1ccc([18F])nc1)c1ccnc(NC(=O)C2CC2)c1			FVB/NJ mice, both sexes, brain	intravenous, 25 min, median, P-gp inhibitor pretreatment, together with: tariquidar 15 mg/kg iv		SUV	0.194

Compound	tested on	assay	test system	setting	how to read	measurement	value
COc1cccc(OC)c1-c1cc(C(=O)NC2(C(=O)O)C3CC4CC(C3)CC2C4)nn1-c1ccc(C(=O)N(C)CCOCCN(C)C(=O)[C@H](CCCCNC(=O)[C@H](CC(C)C)NC(=O)C2OC2C(=O)O)NC(=O)CN2CCN(CC(=O)[O-])CCN(CC(=O)[O-])CCN(CC(=O)[O-])CC2)cc1C(C)C.[177Lu+3] (mixture of isomers)			mouse, HT-29 xenograft, HT-29 tumour	4 h post injection		tissue uptake	6.5 %ID/g
Cc1n[nH]c(C)c1CCCOc1cc(C(=O)NCCCCC(NC(=O)CN2CCN(CC(=O)[O-])CCN(CC(=O)[O-])CCN(CC(=O)[O-])CC2)C(=O)NCC2CCC(C(=O)NC(Cc3ccc4ccccc4c3)C(=O)NCCCCC(NC(=O)NC(CCC(=O)O)C(=O)O)C(=O)O)CC2)ccc1F.[68Ga+3] (stereo not drawn)		PET/CT	mice with PC-3 tumours	2 h post-injection		tumour uptake	3.17 ± 0.82 %ID/g
C=CC(=O)Nc1cccc(Cn2ncc3cnc(Nc4cnn(CCOC)c4)nc32)c1	PKN1 human	binding, KINOMEscan		100 nM	lower = stronger binding	percent of control	100%
Cc1nn(-c2cccc(N)c2)c(=O)c2cnc(Nc3ccc(N4CCNCC4)cc3)nc12	Ephrin type-B receptor 1 (EPHB1, Homo sapiens, UniProt P54762)	enzyme activity, inhibitor				IC50	2520 nM
CN(O)C(=O)CCC(=O)NCCCN(CCCCN(CCCNC(=O)CCC(=O)N(C)O)C(=O)CCC(=O)N(C)O)C(=O)CCC(=O)N(C)O.[89Zr]			human plasma	7 d, 37 °C		intact complex	99.2 ± 0.8%
Nc1ncc(-c2cc(-c3cnn(CC(F)(F)F)c3)ncc2F)nc1C(=O)NC1CNCC(F)C1 (stereo not drawn)	PIK3CG	KINOMEscan		1 µM	relative to: control	remaining binding	5.3%
C=C(NC(=O)c1csc(-c2nc3c(cc2O)-c2nc(cs2)C(=O)NC(C(C)O)C(=O)NC(=C(C)OC)c2nc(cs2)C(=O)NC2c4nc(cs4)C(=O)NC(COC(=O)c4c5c6c(cccc6n4O)COC(=O)C(OC4CC(C)(O)C(N(C)C)C(C)O4)C2OC5)c2nc-3cs2)n1)C(N)=O (stereo not drawn)			ICR mice, Streptococcus pneumoniae ATCC 49169 infected, immunocompromised, blood	intravenous, 4 mg/kg/day twice daily		half-life	1.9 h
COC1CN([C@H]2CC[C@H]([C@@]3(C)Oc4c(Cl)cc(C(=O)NCc5c(SC)cc(C)[nH]c5=O)c(C)c4O3)CC2)C1		RNA-seq, measured: ADGRG6 mouse homolog	mouse, HT-1376 xenograft, whole blood	dose not given	relative to: vehicle	log2 fold change	0.715
C=Cc1cccc([B-]23OC(=O)C(c4ccccc4)=N[N+]2=Cc2ccc(N(CC)CC)cc2O3)c1 (stereo not drawn)			toluene			absorption maximum	472 nm
COc1cccc(OC)c1-c1cc(C(=O)NC2(C(=O)O)C3CC4CC(C3)CC2C4)nn1-c1ccc(C(=O)N(C)CCOCCOCCN(C)C(=O)[C@H](CCCCNC(=O)[C@H](CC(C)C)NC(=O)C2OC2C(=O)O)NC(=O)CN2CCN(CC(=O)[O-])CCN(CC(=O)[O-])CCN(CC(=O)[O-])CC2)cc1C(C)C.[177Lu+3] (mixture of isomers)			mouse, HT-29 xenograft	168 h post injection, biodistribution	relative to: tumour over liver uptake	tumour-to-liver ratio	2.99
C/C(N)=N/C(=N\S(=O)(=O)c1ccc(C(F)(F)F)cc1)N1C[C@H](c2ccccc2)C(c2ccc(Cl)cc2)=N1			beagle dog, plasma	oral, 36 mg/kg		half-life	11.6 h
CN1CCC[C@]1(C)/C=C/S(=O)(=O)NC(=O)Nc1c2c(cc3c1CC(O)C3)CCC2 (stereo partly drawn)			human, plasma	oral, 12.5 mg twice daily of parent drug, day 14, metabolite of dosed drug		AUC(0-tau)	16.6 µg·h/mL
CC(C)(O)c1ncc([S@](N)(=O)=NC(=O)Nc2c3c(cc4c2CCC4)CCC3)s1			healthy human	oral, 30 mg single dose, capsule formulation		nervous system adverse events	17%
O=CC1C(=O)Nc2ccccc21 (stereo not drawn)		chemical stability, HPLC-MS	borate buffered saline	pH 10.2, no N-acetyl-lysine		degradation rate constant	0 h⁻¹
Cc1noc(C)c1Cn1cc(N2C(=O)CN(Cc3cccc(OS(=O)(=O)O)c3)C2=O)cn1			Sprague-Dawley rat, male	oral, 10 mg/kg of parent drug, 0.25 h		plasma concentration	2240 ng/mL
Cc1ncsc1-c1ccc(C(C)NC(=O)C2CC(O)CN2C(=O)C(NC(=O)CCCCCCCCCCN2CCCC(Nc3ncc(Cl)c(Nc4ccccc4S(=O)(=O)C(C)C)n3)C2)C(C)(C)C)cc1 (stereo not drawn)	22Rv1	RNA-seq, measured: TMTC2 mRNA		concentration not given	relative to: DMSO	log2 fold change	-1.14
CCCCN1C(=O)c2cccc3c(NCCCCN4CCOCC4)ccc(c23)C1=O			ethylene glycol			absorption maximum	447 nm
CC(C)C[C@H](NC(=O)[C@H](Cc1ccc(O)cc1)NC(=O)[C@@H](CCCNC(=N)N)NC(=O)[C@@H](CO)NC(=O)[C@H](Cc1ccccc1)NC(=O)[C@H](CC1CCCCC1)NC(=O)[C@H](CC(=O)O)NC(=O)CN1CCN(CC(=O)O)CCN(CC(=O)O)CCN(CC(=O)O)CC1)C(=O)N[C@@H](Cc1c[nH]c2ccccc12)C(=O)N[C@@H](CO)C(=O)O [copper-64 labelled]			human, bone	concentration not given, 24 h		activity concentration	108 Bq/mL and 95.7 Bq/mL and 60.3 Bq/mL and 125 Bq/mL and 107 Bq/mL and 139 Bq/mL

Some of these lines once more:
Compound	tested on	assay	test system	setting	how to read	measurement	value
CN1CCC[C@]1(C)/C=C/S(=O)(=O)NC(=O)Nc1c2c(cc3c1C(O)CC3)CCC2 (stereo partly drawn)			human, plasma	oral, 100 mg twice daily of parent drug, day 14, metabolite of dosed drug		AUC(0-tau)	212 µg·h/mL
Cc1nc(N)nc2c1C(=O)N[C@@H](c1ccc(F)cc1-c1cccc(O[11CH3])n1)C2		ex vivo biodistribution	mice, MDA-MB-231 subcutaneous xenograft, pancreas	60 min post-injection, baseline, vehicle pre-treatment		tracer uptake	2.4 ± 0.1 %ID
C=C(NC(=O)c1csc(-c2nc3c(cc2O)-c2nc(cs2)C(=O)NC(C(C)O)C(=O)NC(=C(C)OC)c2nc(cs2)C(=O)NC2c4nc(cs4)C(=O)NC(COC(=O)c4c5c6c(cccc6n4O)COC(=O)C(OC4CC(C)(O)C(N(C)C)C(C)O4)C2OC5)c2nc-3cs2)n1)C(N)=O (stereo not drawn)			ICR mice, Streptococcus pneumoniae ATCC 49169 infected, immunocompromised, blood	intravenous, 4 mg/kg/day twice daily		half-life	1.9 h
[2H]C1([2H])CC[C@@H](C[C@@H](C#N)NC(=O)[C@@H]2[C@@H]3[C@H](CN2C(=O)[C@@H](NC(=O)C(F)F)C(C)(C)C)C3(C)C)C(=O)N1			mouse liver microsomes	scaled to liver		intrinsic clearance	253 mL/min/kg
O=C1C2CC3CC1CC(C(=O)N1CCN(c4ccc([N+](=O)[O-])c5ncccc45)CC1)(C3)C2	Salmonella typhimurium	Ames test	TA98	0.13 µg/well, with S9	relative to: vehicle	revertant fold increase	1.1
O=CC1C(=O)Nc2ccccc21 (stereo not drawn)		chemical stability, HPLC-MS	borate buffered saline	pH 10.2, no N-acetyl-lysine		degradation rate constant	0 h⁻¹
